# Assay results of several laboratories.
# Numbered parts are unrelated; each lists some results of a single study. Changes are numbered by the printed parent chain.

# Set 1 — method: protein binding microarray; form: double-stranded DNA, one strand shown; medium: in vitro; concentration: not given; relative to: not given; direction: higher = stronger binding
# Target: Histone acetyltransferase KAT6A, both winged helices, GST fusion (KAT6A, Homo sapiens, UniProt Q92794, residues 1-181)
# Notes: 8-mer, flanks averaged, mean of 2 arrays, mostly near background
# Target sequence (chain): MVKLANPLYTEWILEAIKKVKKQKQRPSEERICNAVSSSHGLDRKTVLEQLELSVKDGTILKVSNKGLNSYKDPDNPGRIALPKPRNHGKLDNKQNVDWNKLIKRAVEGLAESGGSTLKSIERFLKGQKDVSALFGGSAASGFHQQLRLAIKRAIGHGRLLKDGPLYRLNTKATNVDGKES
Strand,E-score
TACATCAA,-0.085
ATACCGTG,0.198
AATTTATG,-0.0227
CTCCCGTA,0.205
ACTGAGCT,-0.067
TCACGTAA,-0.0946
CAATGGTC,-0.165
AAAAGAAG,-0.131

# Set 2 — method: protein-binding microarray; form: double-stranded DNA, one strand shown; medium: in vitro; concentration: 0.8 µM; notes: whole 60-bp probe, no competitor; direction: higher = stronger binding; all sequences stand within: … GTCTTGATTCGCTTGACGCTGCTG
# Target: Centromere-binding protein 1, full length, N-terminal tag (CBF1, Saccharomyces cerevisiae, UniProt P17106, residues 1-351)
# Sequence of UniProt P17106 (whole entry, looked up): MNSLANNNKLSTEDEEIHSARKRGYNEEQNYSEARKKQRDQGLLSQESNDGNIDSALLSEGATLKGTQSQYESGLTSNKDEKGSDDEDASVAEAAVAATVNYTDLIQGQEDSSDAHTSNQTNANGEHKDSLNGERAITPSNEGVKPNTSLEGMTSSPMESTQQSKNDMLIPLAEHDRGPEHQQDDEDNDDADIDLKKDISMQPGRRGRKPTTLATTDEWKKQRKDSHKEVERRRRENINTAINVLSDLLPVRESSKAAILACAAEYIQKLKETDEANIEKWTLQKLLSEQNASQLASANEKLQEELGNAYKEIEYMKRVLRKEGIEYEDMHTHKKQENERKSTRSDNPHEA
Strand,fluorescence intensity [a.u.]
CTACACGTGGAGCATCATGAAAAAAACTGGTAATTC,1450
CTAGGACTGTATATCCATGTGGGAAATGCCCAATTC,501
CCTAACTACTATAGATTTAATATATAGCTTCGTACA,515
GAATATAATATGGTTCACGTGCGCTTCATCTTTTAG,4440
CTATATCCACCAACGCACGTATACTTCTTCACTTTC,517
GAAGCAGAAATCAAACGCGTGGCCCTGAAGGATTAG,488
CCTAACTACTATAGCATCGTGCAATAGCTTCGTACA,508
GAATTTTGTTTTTATCAGTTGAGATTGAATTATTAG,585

# Further values, each from its own experiment
# P1: viral docking peptide; TSVRRALFTGGSD; partner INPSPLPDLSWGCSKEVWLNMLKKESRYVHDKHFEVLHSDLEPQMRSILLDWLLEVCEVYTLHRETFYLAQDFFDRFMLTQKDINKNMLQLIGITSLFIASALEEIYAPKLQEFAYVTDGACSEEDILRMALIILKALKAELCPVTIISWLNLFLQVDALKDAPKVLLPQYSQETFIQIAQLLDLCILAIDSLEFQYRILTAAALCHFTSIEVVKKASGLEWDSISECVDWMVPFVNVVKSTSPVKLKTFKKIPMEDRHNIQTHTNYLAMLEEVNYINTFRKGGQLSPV
Molecule,target,test,system,setting,how to read,endpoint,result
P1 G11T,"CCNE2, cyclin fold, Cln2 fusion (human)","yeast growth competition, sequencing",yeast,strong parent motif,"relative to: not given, higher = stronger binding",normalised enrichment score,4.34
"PhoQ, residues 284 288 289 292 302 303 AGGCYF","PhoP, residues 12 14 15 18 19 NQFFI (Escherichia coli, UniProt P23836)","Sort-seq, measured: YFP reporter",E. coli,"PhoQ-PhoP variant library, together with: 10 µM Mg2+","relative to: high Mg2+ state, higher = stronger signaling",fold induction,1.69

# A few entries again (set 2):
Strand,fluorescence intensity [a.u.]
GAATTTTGTTTTTATCAGTTGAGATTGAATTATTAG,585
GAATATAATATGGTTCACGTGCGCTTCATCTTTTAG,4440
CCTAACTACTATAGCATCGTGCAATAGCTTCGTACA,508
